{"data": "Assay results of several laboratories", "note": "Each numbered part is a random draw from the data of one study; scales do not carry over between parts. Several values in a cell are separate wells, animals, samples, runs or records.", "sequence of UniProt Q9H0K1 (whole entry, looked up)": "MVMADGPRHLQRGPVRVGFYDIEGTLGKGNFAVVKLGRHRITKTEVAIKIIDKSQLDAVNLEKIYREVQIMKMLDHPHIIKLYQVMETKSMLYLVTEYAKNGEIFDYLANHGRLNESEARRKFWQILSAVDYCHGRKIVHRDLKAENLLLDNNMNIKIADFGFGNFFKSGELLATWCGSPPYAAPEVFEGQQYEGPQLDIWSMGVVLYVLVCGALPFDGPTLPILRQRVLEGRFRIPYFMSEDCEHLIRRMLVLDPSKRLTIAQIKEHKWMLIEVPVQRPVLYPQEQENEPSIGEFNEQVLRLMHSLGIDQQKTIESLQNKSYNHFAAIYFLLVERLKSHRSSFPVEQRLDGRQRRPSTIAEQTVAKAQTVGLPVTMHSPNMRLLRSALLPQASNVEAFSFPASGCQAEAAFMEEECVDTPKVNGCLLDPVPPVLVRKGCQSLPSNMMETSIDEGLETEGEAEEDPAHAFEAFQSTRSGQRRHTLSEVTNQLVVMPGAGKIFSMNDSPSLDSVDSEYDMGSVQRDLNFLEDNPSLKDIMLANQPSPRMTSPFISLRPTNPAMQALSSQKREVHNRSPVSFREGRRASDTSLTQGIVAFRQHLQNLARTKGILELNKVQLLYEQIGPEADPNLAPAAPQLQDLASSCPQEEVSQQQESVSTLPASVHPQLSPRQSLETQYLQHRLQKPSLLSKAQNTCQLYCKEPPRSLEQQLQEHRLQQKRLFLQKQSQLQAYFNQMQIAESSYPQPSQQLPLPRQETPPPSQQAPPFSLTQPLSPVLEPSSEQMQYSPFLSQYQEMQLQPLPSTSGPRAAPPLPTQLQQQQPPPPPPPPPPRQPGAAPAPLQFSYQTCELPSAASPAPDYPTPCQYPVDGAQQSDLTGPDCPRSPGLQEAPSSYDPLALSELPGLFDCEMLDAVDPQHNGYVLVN", "sequence of UniProt Q9NQU5 (whole entry, looked up)": "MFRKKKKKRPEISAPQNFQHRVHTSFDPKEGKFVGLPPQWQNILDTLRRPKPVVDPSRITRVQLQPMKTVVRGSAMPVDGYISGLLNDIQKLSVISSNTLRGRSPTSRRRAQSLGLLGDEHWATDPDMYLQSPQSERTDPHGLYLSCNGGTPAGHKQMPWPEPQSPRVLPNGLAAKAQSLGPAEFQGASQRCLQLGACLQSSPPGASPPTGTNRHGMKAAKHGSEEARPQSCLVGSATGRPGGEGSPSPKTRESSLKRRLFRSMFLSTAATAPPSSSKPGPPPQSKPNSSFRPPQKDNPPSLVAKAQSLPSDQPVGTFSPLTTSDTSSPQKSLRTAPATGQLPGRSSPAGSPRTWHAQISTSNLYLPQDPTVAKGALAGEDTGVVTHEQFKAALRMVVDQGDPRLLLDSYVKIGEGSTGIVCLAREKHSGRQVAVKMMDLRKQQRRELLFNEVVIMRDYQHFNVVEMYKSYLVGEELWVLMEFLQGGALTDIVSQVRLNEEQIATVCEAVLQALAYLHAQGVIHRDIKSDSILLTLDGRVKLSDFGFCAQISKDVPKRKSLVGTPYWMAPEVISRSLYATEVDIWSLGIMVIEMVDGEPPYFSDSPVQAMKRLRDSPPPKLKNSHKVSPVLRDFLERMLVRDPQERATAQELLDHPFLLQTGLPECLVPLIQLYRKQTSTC", "sequence of UniProt Q9UF33 (whole entry, looked up)": "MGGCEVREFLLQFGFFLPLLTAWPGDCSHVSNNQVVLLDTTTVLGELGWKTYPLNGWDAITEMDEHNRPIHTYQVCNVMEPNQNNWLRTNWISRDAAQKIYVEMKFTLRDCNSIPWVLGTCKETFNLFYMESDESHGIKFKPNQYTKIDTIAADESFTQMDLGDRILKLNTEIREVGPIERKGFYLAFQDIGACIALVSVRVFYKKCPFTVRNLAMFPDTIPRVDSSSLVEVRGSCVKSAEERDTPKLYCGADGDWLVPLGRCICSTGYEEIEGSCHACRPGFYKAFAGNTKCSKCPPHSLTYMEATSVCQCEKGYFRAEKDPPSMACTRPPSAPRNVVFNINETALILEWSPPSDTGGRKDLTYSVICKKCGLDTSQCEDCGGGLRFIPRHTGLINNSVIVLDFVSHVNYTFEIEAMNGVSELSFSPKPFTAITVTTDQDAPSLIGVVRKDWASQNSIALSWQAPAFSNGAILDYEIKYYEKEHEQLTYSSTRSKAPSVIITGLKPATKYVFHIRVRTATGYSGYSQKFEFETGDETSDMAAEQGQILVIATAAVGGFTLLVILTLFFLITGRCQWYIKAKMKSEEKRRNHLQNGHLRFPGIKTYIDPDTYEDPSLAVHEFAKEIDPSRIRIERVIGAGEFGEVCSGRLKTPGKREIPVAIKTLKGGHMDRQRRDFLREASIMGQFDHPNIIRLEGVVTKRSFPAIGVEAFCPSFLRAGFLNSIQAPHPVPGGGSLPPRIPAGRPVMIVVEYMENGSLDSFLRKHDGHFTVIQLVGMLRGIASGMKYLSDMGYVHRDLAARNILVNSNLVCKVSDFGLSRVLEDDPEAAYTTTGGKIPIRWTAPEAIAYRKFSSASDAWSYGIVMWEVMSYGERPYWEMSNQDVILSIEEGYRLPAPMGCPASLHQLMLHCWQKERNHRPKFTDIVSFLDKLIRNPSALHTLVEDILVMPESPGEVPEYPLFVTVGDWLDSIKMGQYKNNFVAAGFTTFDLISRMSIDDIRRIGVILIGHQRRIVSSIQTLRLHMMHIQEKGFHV", "sequence of UniProt Q13153 (whole entry, looked up)": "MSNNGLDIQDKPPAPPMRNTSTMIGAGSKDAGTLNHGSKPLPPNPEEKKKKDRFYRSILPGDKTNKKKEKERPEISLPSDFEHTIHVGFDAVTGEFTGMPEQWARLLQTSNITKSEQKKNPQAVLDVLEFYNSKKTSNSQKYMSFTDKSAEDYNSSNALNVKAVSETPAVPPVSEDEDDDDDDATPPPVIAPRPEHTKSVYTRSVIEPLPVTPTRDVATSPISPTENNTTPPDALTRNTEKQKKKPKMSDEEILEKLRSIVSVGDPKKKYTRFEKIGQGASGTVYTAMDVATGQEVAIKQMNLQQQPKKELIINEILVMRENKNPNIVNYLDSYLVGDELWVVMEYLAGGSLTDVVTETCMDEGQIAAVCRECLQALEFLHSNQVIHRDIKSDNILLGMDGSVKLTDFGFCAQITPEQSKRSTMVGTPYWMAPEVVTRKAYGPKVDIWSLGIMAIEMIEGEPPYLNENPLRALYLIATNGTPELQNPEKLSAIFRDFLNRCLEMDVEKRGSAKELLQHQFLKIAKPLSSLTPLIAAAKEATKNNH", "sequence of UniProt P48730 (whole entry, looked up)": "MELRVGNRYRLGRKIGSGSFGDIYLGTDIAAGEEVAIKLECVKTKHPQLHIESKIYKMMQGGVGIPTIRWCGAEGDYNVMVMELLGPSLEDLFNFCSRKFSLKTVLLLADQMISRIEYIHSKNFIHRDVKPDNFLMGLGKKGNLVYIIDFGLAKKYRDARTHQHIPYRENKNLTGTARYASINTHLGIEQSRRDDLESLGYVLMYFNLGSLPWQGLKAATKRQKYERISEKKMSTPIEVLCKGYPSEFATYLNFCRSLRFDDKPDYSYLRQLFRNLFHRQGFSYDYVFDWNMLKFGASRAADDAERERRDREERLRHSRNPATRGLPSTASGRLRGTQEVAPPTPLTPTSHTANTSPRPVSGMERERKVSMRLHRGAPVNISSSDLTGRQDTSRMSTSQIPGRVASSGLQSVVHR", "sequence of UniProt P49674 (whole entry, looked up)": "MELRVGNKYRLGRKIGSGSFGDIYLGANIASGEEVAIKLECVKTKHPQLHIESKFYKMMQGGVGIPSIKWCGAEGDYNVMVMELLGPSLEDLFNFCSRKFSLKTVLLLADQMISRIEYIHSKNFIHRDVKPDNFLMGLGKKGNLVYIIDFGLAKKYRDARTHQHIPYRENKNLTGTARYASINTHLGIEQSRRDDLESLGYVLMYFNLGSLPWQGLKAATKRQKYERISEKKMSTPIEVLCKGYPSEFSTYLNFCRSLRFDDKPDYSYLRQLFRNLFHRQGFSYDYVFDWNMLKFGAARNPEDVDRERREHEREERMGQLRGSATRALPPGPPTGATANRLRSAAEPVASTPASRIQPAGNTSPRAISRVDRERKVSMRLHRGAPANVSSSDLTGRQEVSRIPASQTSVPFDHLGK", "sequence of UniProt P42680 (whole entry, looked up)": "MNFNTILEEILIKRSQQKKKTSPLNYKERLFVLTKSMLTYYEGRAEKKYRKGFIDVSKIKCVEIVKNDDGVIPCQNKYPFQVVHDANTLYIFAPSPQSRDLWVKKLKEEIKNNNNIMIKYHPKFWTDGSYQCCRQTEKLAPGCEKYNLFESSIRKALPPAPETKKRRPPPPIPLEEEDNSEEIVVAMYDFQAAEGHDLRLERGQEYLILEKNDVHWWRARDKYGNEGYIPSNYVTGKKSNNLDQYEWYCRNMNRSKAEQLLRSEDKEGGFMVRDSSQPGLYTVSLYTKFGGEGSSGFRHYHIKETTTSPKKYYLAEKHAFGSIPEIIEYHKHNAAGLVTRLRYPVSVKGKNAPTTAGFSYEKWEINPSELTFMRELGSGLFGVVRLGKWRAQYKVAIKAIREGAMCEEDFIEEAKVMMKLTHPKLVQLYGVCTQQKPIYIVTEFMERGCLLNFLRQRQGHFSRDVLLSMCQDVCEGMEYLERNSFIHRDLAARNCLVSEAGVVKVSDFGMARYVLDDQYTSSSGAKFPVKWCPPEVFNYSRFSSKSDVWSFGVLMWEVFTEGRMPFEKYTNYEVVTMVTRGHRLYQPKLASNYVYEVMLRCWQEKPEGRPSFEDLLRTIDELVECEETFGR"}
{"data": "Sample 1", "cell line": "HEK-293T/ACE2", "technique": "Hoechst nuclei count", "concentration": "concentration not given", "time": "16 (unit not given)", "reference": "vehicle"}
{"Structure (SMILES)": "CC(=O)OCC(=O)[C@H]1CC[C@H]2[C@@H]3CCC4=CC(=O)CC[C@]4(C)[C@H]3CC[C@]12C", "viability": "103%"}
{"Structure (SMILES)": "C[C@@H](O)[C@H]1C(=O)N2C(C(=O)O)=C(SCCN=CN)C[C@H]12", "viability": "99.5%"}
{"Structure (SMILES)": "C[C@@H](c1ncncc1F)[C@](O)(Cn1cncn1)c1ccc(F)cc1F", "viability": "98.2%"}
{"Structure (SMILES)": "COC(=O)N[C@H](C(=O)N1CCC[C@H]1c1nc(-c2ccc(-c3ccc(-c4c[nH]c([C@@H]5CCCN5C(=O)[C@@H](NC(=O)OC)C(C)C)n4)cc3)cc2)c[nH]1)C(C)C", "viability": "104%"}
{"Structure (SMILES)": "C[C@H]1CNCCc2ccc(Cl)cc21", "viability": "96.8%"}
{"Structure (SMILES)": "c1ccc(CC2=NCCN2)cc1", "viability": "106%"}
{"Structure (SMILES)": "CCc1cc2c(cc1N1CCC(N3CCOCC3)CC1)C(C)(C)c1[nH]c3cc(C#N)ccc3c1C2=O", "viability": "101%"}
{"Structure (SMILES)": "Cc1cn([C@@H]2C[C@@H](O)[C@H](CO)O2)c(=O)[nH]c1=O", "viability": "103%"}
{"Structure (SMILES)": "C[C@@H]1C[C@H]2[C@@H]3CCC4=CC(=O)C=C[C@]4(C)[C@@]3(Cl)[C@@H](O)C[C@]2(C)[C@@]1(OC(=O)c1ccco1)C(=O)CCl", "viability": "102%"}
{"Structure (SMILES)": "CN(C)C/C=C/C(=O)Nc1cc2c(Nc3ccc(F)c(Cl)c3)ncnc2cc1O[C@H]1CCOC1", "viability": "87.9%"}
{"Structure (SMILES)": "CC(C)n1c(/C=C/C(O)CC(O)CC(=O)O)c(-c2ccc(F)cc2)c2ccccc21 (stereo not drawn)", "viability": "103%"}
{"Structure (SMILES)": "Cc1cc(/C=C/C#N)cc(C)c1Nc1ccnc(Nc2ccc(C#N)cc2)n1", "viability": "36.4%"}
{"Structure (SMILES)": "CC(=O)OC(C)C[N+](C)(C)C (stereo not drawn)", "viability": "105%"}
{"Structure (SMILES)": "Nc1nc(CC(=O)Nc2ccc(CCNC[C@H](O)c3ccccc3)cc2)cs1", "viability": "107%"}
{"data": "Sample 2", "cell line": "A-375", "concentration": "100 µM", "time": "36 h"}
{"SMILES": "CCN1C[C@]2(OC(=O)c3ccccc3NC(C)=O)CC[C@H](OC)[C@@]34[C@@H]2C[C@@H]([C@@H]13)[C@@]1(O)C[C@H](OC)[C@H]2C[C@@H]4[C@]1(O)[C@H]2OC", "viability [%]": 98.8}
{"SMILES": "C[C@@H]1O[C@@H](O[C@H]2C[C@@H](O)[C@]3(CO)[C@H]4[C@H](O)C[C@]5(C)[C@@H](C6=CC(=O)OC6)CC[C@]5(O)[C@@H]4CC[C@]3(O)C2)[C@H](O)[C@H](O)[C@H]1O", "viability [%]": 29.9}
{"SMILES": "CCO[C@H]1O[C@@H]2O[C@@]3(C)CC[C@H]4[C@H](C)CC[C@@H]([C@H]1C)[C@@]24OO3", "viability [%]": 43}
{"SMILES": "CCCC(C)(COC(N)=O)COC(=O)NC(C)C (stereo not drawn)", "viability [%]": 85}
{"SMILES": "CN1C(=O)COc2c(C(=O)NC3CN4CCC3CC4)cc(Cl)cc21 (stereo not drawn)", "viability [%]": 96}
{"SMILES": "Cc1c(N)nc([C@H](CC(N)=O)NC[C@H](N)C(N)=O)nc1C(=O)N[C@H](C(=O)N[C@H](C)[C@@H](O)[C@H](C)C(=O)N[C@H](C(=O)NCCc1nc(-c2nc(C(=O)NCCC[S+](C)C)cs2)cs1)[C@@H](C)O)[C@@H](O[C@@H]1O[C@@H](CO)[C@@H](O)[C@H](O)[C@@H]1O[C@H]1O[C@H](CO)[C@@H](O)[C@H](OC(N)=O)[C@@H]1O)c1c[nH]cn1", "viability [%]": 28.6}
{"SMILES": "CCOP(=S)(OCC)Oc1cc(C)nc(C(C)C)n1", "viability [%]": 11.8}
{"SMILES": "CCOC(=O)CC(SP(=S)(OC)OC)C(=O)OCC (stereo not drawn)", "viability [%]": 58.4}
{"SMILES": "N=C(N)NN", "viability [%]": 124}
{"SMILES": "Nc1ccncc1", "viability [%]": 102}
{"SMILES": "NCC1(CC(=O)O)CCCCC1", "viability [%]": 109}
{"SMILES": "CC(C)C[C@H](CN)CC(=O)O", "viability [%]": 124}
{"data": "Sample 3", "Structure (SMILES)": "COC[C@H]1OC(=O)c2coc3c2[C@@]1(C)C1=C(C3=O)[C@@H]2CCC(=O)[C@@]2(C)C[C@H]1OC(C)=O", "concentration": "0.5 µM"}
{"target": "RPS6KA3 (Homo sapiens, UniProt P51812)", "observed": "enzyme activity", "action": "inhibitor", "reference": "control", "remaining activity": "87.5%"}
{"target": "EPHA6 (Homo sapiens, UniProt Q9UF33)", "observed": "enzyme activity", "action": "inhibitor", "reference": "control", "remaining activity": "89.7%"}
{"target": "SIK2 (Homo sapiens, UniProt Q9H0K1)", "observed": "enzyme activity", "action": "inhibitor", "reference": "control", "remaining activity": "96.8%"}
{"target": "JAK1 (Homo sapiens, UniProt P23458)", "observed": "enzyme activity", "action": "inhibitor", "reference": "control", "remaining activity": "90.9%"}
{"target": "PAK1 (Homo sapiens, UniProt Q13153)", "observed": "enzyme activity", "action": "inhibitor", "reference": "control", "remaining activity": "95.3%"}
{"target": "CLK1 (Homo sapiens, UniProt P49759)", "observed": "enzyme activity", "action": "inhibitor", "reference": "control", "remaining activity": "90.7%"}
{"target": "PAK6 (Homo sapiens, UniProt Q9NQU5)", "observed": "enzyme activity", "action": "inhibitor", "reference": "control", "remaining activity": "95.4%"}
{"target": "TEC (Homo sapiens, UniProt P42680)", "observed": "enzyme activity", "action": "inhibitor", "reference": "control", "remaining activity": "118%"}
{"target": "ABL2 (Homo sapiens, UniProt P42684)", "observed": "kinase activity", "together with": "ATP 10 µM", "reference": "untreated", "remaining activity": "94.9%"}
{"target": "CSNK1E (Homo sapiens, UniProt P49674)", "observed": "enzyme activity", "action": "inhibitor", "reference": "control", "remaining activity": "95.5%"}
{"target": "CSNK1D (Homo sapiens, UniProt P48730)", "observed": "enzyme activity", "action": "inhibitor", "reference": "control", "remaining activity": "96.6%"}
{"target": "PRKCQ (Homo sapiens, UniProt Q04759)", "observed": "enzyme activity", "action": "inhibitor", "reference": "control", "remaining activity": "94.7%"}
{"data": "Sample 4", "SMILES": "[N-]=[N+]=CC(=O)CC[C@H](N)C(=O)O", "host": "C57BL/6 CES1-/- mouse, both sexes", "route": "intravenous", "dose": "1 mg/kg"}
{"time": "day 11", "body weight": "87% and 90% and 91% and 92% and 88% and 93%"}
{"time": "day 15", "body weight": "78% and 77% and 74% and 85% and 80% and 82%"}
{"time": "day 9", "body weight": "96% and 100% and 97%"}
{"time": "day 7", "body weight": "100%"}
{"note": "Repeated from above (sample 3):"}
{"target": "PRKCQ (Homo sapiens, UniProt Q04759)", "observed": "enzyme activity", "action": "inhibitor", "reference": "control", "remaining activity": "94.7%"}
{"target": "ABL2 (Homo sapiens, UniProt P42684)", "observed": "kinase activity", "together with": "ATP 10 µM", "reference": "untreated", "remaining activity": "94.9%"}
{"target": "CSNK1D (Homo sapiens, UniProt P48730)", "observed": "enzyme activity", "action": "inhibitor", "reference": "control", "remaining activity": "96.6%"}
